Measurements pooled from the literature.
Each numbered part is a random draw from the data of one study; scales do not carry over between parts. Changes are numbered by the printed parent chain.

Sample 1
Target: RNA binding protein fox-1 homolog 2, RRM domain, GST-SBP tag (RBFOX2, Homo sapiens, UniProt O43251-10, residues 100-194)
Technique: RNA Bind-n-Seq
Molecule type: RNA
Matrix: in vitro
Concentration: 365 nM
Setting: natural RNA segment, single round, ends assumed
Baseline: no-protein control
Direction: higher = stronger binding
Measurement: RBNS enrichment (R)
Constant ends, left off below: GGGAGUUCUACAGUCCGACGAUC … UGGAAUUCUCGGGUGCCAA
Construct (chain): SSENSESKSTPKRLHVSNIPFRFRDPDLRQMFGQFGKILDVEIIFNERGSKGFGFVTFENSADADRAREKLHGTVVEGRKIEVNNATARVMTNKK
CUGUUUGAACUUAAGAAGAAUAAACUACACUUUACUUUAUGUGCAGAAAUGAGACAUUCUGACAAUAAUGAAGUGCUUCAUGGUAUCUCAACAGUGUACUUUCUUGUAAU: 0.386
CUUGUGGAGGAGUGGGUGGGGAGGACCACGGUUUGAGGAUCGCUCCUUGCAGAGCUCAUGGUGACCAUUGGUUAAAGCCCAGAAGUUCUGUGUAAGCAUUGAACACUGUC: 2.19
CAAAUUGGGAUCCUAACCUAAGAUGCCUUAAACUUAUUAACAUGACCAUUAUAAGAAAAGAUAUAUGGAGUUGUAUCUUACUGGAAUUAAUAAACACUGCUUGACCACCG: 0.783
AUAGUUCUAGCACUUUUAAAUUUUUCCUUUCCAUACAACGCUUGGGCCAGCCUCUCUGUGCUGCGUGGCUGUCGGUCCCCCUCAGCUGGGAAAGAGAGCACUGGCUCACU: 0.625
AAAUGGUUAAUAUUGGUCCCAACAGGGCUGACUCUUCUAUCAUAUAAUCAAAACUUUUUACAUGAGCAAAAUUCAGUAAGAAAUGGGGGAAGACAAAGGAAACGUCUUUG: 0.495
CGUUUUUAUAUUACUUUUGUAAAUAUUCUUGUCCACAUUCUACUUCAGCUUUGGAUGUGGUUACCGAGUAUCUGUAACCCUUGAAUUUCUAGACAGUAUUGCCACCUCUG: 0.706
CUCUGGUUUCUUGGCUGCAUGGUUCUCUGUAAAUUCAGUUGUAGCCACUGUCUUUGGCUAGAAAGCUGAAUUGGCUGUUGCUGAAAGGAAGGAGGGGAUGGGUGUGGCGA: 0.54
UGCAGGCAUGGUCCCUGGAGCCGAGCCUUCACCACGCACUCGUCCAAGUUCGGAUGCGGGAACCUGGUCCCAGCUUGAGUUCCUGCCUUUCCCACCACAAAUUAUCAACU: 0.315
ACCGGGUGGAGGCGGUGGGGACCCAGCCGCGCGCCGGGAGCGCUCCCCGGAAUGAGCCGCCCCACCCACCCCAAGGCUGGAGCCGCUGCACCCUGCUGUCCCUCUCCAGG: 14.7
CUAUUUCACUGAGUCUGGAUAAGGUUUCAGAGUUCAAAUGCUUGACGUUGGCACUUAACAUGAAAGCCUAUAGGUCAUUCUUGCUCUGGGAUCUACAGGCAGGGUAGGCA: 0.978
UGUGUCUGGACUUAACUCACGUAGUAAAUACUGCUGAUCAAUACCUAAUCAUUCCACAUUUAUUGAGCUCCACCUGUGUGUAUGUGUACCCAAGCACACAUGUGUGAAGG: 0.45
UGUAUCCCAGCCAGCCUGGGUCUCACUGUAUAGCUGGAGAGACUUUCGAAAUUGUAUCCUUCUGACUCUGCUUCCUGGGUGCUGAAAUUAAAGGCAUGUGCCACUAUGCA: 3.8

Sample 2
Target: Centromere-binding protein 1, full length, N-terminal tag (CBF1, Saccharomyces cerevisiae, UniProt P17106, residues 1-351)
Sequence of UniProt P17106 (whole entry, looked up): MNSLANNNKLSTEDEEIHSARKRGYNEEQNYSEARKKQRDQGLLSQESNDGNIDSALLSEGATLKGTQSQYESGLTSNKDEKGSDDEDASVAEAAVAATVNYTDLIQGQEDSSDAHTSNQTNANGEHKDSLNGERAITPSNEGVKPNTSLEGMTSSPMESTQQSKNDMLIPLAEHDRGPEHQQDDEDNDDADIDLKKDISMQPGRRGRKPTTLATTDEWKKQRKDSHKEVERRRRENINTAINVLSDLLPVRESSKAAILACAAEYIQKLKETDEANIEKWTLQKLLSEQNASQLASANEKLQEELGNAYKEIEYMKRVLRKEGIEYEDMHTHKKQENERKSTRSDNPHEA
Technique: protein-binding microarray
Molecule type: double-stranded DNA, one strand shown
Matrix: in vitro
Concentration: 0.8 µM
Setting: whole 60-bp probe, no competitor
Direction: higher = stronger binding
Measurement: fluorescence intensity
Constant ends, left off below: … GTCTTGATTCGCTTGACGCTGCTG
CTATAACCCCAATGGAAGGTGACGATCACTTCTTTC: 512 a.u.
CTAAACCATCATTTTTTCGTGACGTTTCATAGTTTC: 511 a.u.
TGTACGAAGCTATCTCTGATGTATATAGTAGTTAGG: 529 a.u.
GAATGAGGCTTTGCTGGTGACAATTCAGAAAATTAG: 558 a.u.
CTAAGACTTGAGTGCCATCAGCAAAGAAAAATATTC: 524 a.u.
CTACAAAAAATGAGTCACGCACGCACAATCACGTTC: 1110 a.u.
CTAAACGGCTACCGCGCGGTGACGAATCAATGCTTC: 491 a.u.
CTAGATTTCCTATTGTGCGTGCCTTATTTACGCTTC: 557 a.u.
GAAATTGAAGGGAAAAAGGTGACTGAAATATGATAG: 552 a.u.
GAACCTTCCCCACCGCATGTGAAAAAAGCTCGATAG: 595 a.u.
CTAAAATTACGAGATCAGCAGAAAATAAAATTCTTC: 513 a.u.
GAACTTTTACAACATGATGTCCCTGAAACAGAGTAG: 581 a.u.
GAATTCGTGAAACGTGACATGTTGGGTACCCGCTAG: 6020 a.u.
GAATGCTTAATAATTAGCGTGATTTCAATGGAATAG: 639 a.u.
GAAACCATAGCAACTCATGTCACTATCAATTACTAG: 535 a.u.
CTAACAAGCATCTTTAGCGTGCCCTTAGGGCCCTTC: 477 a.u.
GAAGGAAGAGTACAACACGCCATACAATGATCATAG: 539 a.u.
CTACCAAAATTTTCACACCTGAGATATATTGTTTTC: 504 a.u.
GAATATATAAAGTATGTCATGAGTAAACTAGTTTAG: 539 a.u.
CTACGAGGATGGAGCAGCCTGATGTCTTTGTAATTC: 508 a.u.
CTAATTCCTCTATGGCGTGTGATGTCTGTATCTTTC: 574 a.u.
GAAAAAAAGGTTTGTCACGAGCACCTAACTACTTAG: 1310 a.u.
GAACACCACTCAGGGCACGAGAAAAGCTTATTTTAG: 547 a.u.
CTACCTTTCGACAGTCATCAGATAATTTTATCCTTC: 553 a.u.
CCTAACTACTATAGCAAAATCACATAGCTTCGTACA: 547 a.u.

Sample 3
Target: Ras GTPase-activating protein-binding protein 1, RRM domain (G3BP1, Homo sapiens, UniProt Q13283)
Sequence of UniProt Q13283 (whole entry, looked up): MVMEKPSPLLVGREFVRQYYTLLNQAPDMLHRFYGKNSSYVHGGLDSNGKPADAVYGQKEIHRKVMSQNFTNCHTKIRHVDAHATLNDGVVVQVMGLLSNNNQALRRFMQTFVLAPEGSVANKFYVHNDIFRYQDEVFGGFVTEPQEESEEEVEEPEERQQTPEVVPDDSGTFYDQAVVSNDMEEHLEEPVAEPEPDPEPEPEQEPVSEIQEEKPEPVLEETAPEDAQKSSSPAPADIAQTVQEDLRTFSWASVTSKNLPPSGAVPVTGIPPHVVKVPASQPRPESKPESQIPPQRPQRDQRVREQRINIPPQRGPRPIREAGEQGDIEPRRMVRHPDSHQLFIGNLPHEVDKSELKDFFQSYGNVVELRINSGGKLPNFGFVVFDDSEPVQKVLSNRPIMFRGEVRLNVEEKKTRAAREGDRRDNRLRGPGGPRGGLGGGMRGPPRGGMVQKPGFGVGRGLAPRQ
Technique: RNA Bind-n-Seq
Molecule type: RNA
Matrix: in vitro
Concentration: 1 µM
Setting: whole 134-nt RNA, ends assumed
Together with: 150 mM KCl
Baseline: input library
Direction: higher = stronger binding
Measurement: log2 enrichment
Constant ends, left off below: GGGAGUUCUACAGUCCGACGAUC … UGGAAUUCUCGGGUGUCAAGG
UGUCCAGCUCUGAAGGGCAAAGUGCAGAAGAUCCUAAUCUGGAAGUGGGGUCAGCCACCAUCUCCCACACCAGUGCCUCGGCCUCCAGAU: -0.0753
CUCAAGUCCUGUGCUACACAUCGUAUGUACCGAAUCGGGAGGGUUUGGGUGGGAAAGUAUUAUGUUACGCCGUUCGGAUCUGCACUUCCA: 0.468
GUCCUGUGCUACACAUCGUAUGUACCGAAUCGGGUUUUUGGUUUUUGGGUUUUUGGGGAAAGUAUUAUGUUACGCCGUUCGGAUCUGCAC: -0.188
AAGUCCUGUGCUACACAUCGUAUGUACCGAAUCGGGUUUUGGGUUUUGGGUUUUGGGAAAGUAUUAUGUUACGCCGUUCGGAUCUGCACU: 0.473
ACCAUGCAGGUGGGCAGCUUUGGGAAGUGGGGCAAGGGGGGGAUAGGGAGGGGGGUAACACUUUGGGAACAGGUGGUCCCAGGUCGUUUC: -0.543
UUCCCUCUGUUUUAUUUUUCCCCCGUGUGUCCCUACUAUGGUCAGAAAGCCUGUUGUGUCCACCAUCUCCAAAGGAGGUUACCUGCAGGG: -0.468
UCAAGUCCUGUGCUACACAUCGUAUGUACCGAAUCGGAAAGGUGGUUUUUUUGGAAAGUAUUAUGUUACGCCGUUCGGAUCUGCACUUCC: -0.177
AGUCCUGUGCUACACAUCGUAUGUACCGAAUCGGGUUUGGGAAAGGGAAAAAAAGGGAAAGUAUUAUGUUACGCCGUUCGGAUCUGCACU: 0.387
GUCCUGUGCUACACAUCGUAUGUACCGAAUCGGGCCCCCCGGGCCCCCCGGCCCCCCGGAAAGUAUUAUGUUACGCCGUUCGGAUCUGCA: -0.368
UUUCUGCAGCAUUAGAGAAGGCCCAAGAAGAAGCCCGUCAGCAGCAAGAAACAUUAGCCAUUCAAGUAAGCAAUGGAUGAUGAAUUAGAG: -0.148
UCCUGUGCUACACAUCGUAUGUACCGAAUCGGGGUUUGGGGUUUUUGGGGAAAAAGGGGAAAGUAUUAUGUUACGCCGUUCGGAUCUGCA: 1.35
GCAGGAAGUAAAAACAAAUGGAAAUGCUUCGGAUAGUGGCAGGGGUGGGGGUUGCUAAGGAAAGGGUGGGAUGGGAAUGGGUAAAGAGUU: 1.24
GCAGGAAGUAAAAACAAAUGGAAAUGCUUCGUAUAGUGGCAGGGGUGGGGGUUGCUAAGGAAAGGGUGGGAUGGGAGUGGGUAAAGAGUU: 1.14
UUUCUAGCUGGACCAGUCCGGUACGCUCCGGGCCUCACCGAGGAAGUCCCACCCUGCAGGGGAACCGACUCUGGCCGGCCCUAACCCCUC: -0.558

Sample 4
Target: ABI1, truncated, D143A, DHFR fusion (Arabidopsis thaliana)
Technique: DHFR PCA, deep sequencing
Matrix: yeast
Setting: methotrexate growth selection, single substitutions
Together with: (+)-ABA 4.8 µM
Baseline: wild-type fitted maximum
Direction: higher = stronger binding
Measurement: relative binding score
Parent: PYL1, truncated, DHFR fusion (Arabidopsis thaliana); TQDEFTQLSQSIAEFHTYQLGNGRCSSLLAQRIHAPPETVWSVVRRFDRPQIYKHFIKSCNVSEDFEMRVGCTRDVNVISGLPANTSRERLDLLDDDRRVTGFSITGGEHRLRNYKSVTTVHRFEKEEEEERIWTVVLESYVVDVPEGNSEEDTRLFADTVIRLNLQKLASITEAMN; partner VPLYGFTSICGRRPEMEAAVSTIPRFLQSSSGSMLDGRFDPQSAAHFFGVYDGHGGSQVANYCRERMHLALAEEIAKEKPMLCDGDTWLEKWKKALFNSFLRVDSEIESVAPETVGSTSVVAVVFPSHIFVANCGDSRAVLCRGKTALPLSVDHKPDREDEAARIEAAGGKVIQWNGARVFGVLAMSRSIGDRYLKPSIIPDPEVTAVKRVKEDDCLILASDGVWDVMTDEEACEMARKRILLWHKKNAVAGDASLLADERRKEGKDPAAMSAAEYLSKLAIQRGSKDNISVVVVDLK
R74S: -8.7%
V40Y: 2.9%
T120D: -1.55%
R90W: -2.94%
T106D: 8.71%
L156C: 83.6%
T39K: 67.7%
S80V: 2.07%
F124C: 72.4%
Q7E: 73.7%
C72A: 85.9%
R45H: -1.43%
E109L: 19.9%
P83L: 11.5%
T101Y: 39.9%
I79V: 83.9%
N177R: 71%
L8I: 54.6%
G102A: 44.4%
F103Y: 56%

Sample 5
Target: PABPC1L2, full length, GST fusion (mouse, UniProt A0ABA7IW68)
Technique: RNAcompete
Molecule type: RNA
Matrix: in vitro
Concentration: 20 nM
Setting: 7-mer, probes averaged, single round
Baseline: mean of 7-mers
Direction: higher = stronger binding
Measurement: 7-mer Z-score
Residues (chain): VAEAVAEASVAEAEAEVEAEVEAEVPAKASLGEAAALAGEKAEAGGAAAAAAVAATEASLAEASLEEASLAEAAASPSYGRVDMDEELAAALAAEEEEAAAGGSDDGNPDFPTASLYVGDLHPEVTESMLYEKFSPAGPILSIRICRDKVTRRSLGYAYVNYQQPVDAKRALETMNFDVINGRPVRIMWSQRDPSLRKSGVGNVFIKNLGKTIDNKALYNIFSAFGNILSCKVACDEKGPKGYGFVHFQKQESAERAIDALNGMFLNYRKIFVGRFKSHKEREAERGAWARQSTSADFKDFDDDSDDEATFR
UUCUGAG: -0.231
UGACUAU: -0.126
GCUACGA: -0.11
CUCAUCC: -0.425
UUUUUGC: -0.175
CGACUUA: -0.153
GGGGCAA: 0.675
GGCACUA: 0.249
GGUGCGU: 0.0823
CGCCUAU: -0.335
GGGUGAC: 0.0768
CUGUGCU: -0.238
GGUCUUG: -0.128
GUUACGG: -0.271
AGGCGUA: 0.0424
GUAAUCU: -0.271
UACAAGU: -0.0826
AAAAACA: 23.1
UGGGCGA: 0.291
AGUAACU: -0.0989
GUGAUUU: -0.224
CAUCGCC: -0.396

Repeated from above (sample 5):
GUUACGG: -0.271
AGGCGUA: 0.0424
GUAAUCU: -0.271
UACAAGU: -0.0826
AAAAACA: 23.1
